Measurements pooled from the literature.
A part holds a random share of what one study measured. Positions count from the first letter of the parent shown.

Study 1
Target: ABI1, truncated, D143A, DHFR fusion (Arabidopsis thaliana, UniProt P49597)
Technique: DHFR PCA, dose-response
Sample: yeast
Notes: Hill fit, mean, not affinity
Added: (+)-ABA, dose series
Direction: lower = more sensitive
Starting sequence: PYL1, truncated, DHFR fusion (Arabidopsis thaliana, UniProt Q8VZS8); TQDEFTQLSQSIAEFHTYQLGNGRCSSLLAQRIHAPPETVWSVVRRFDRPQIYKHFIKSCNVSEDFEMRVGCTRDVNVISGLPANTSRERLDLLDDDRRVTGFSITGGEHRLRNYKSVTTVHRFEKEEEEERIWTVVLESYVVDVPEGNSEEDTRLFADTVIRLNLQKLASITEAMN
Variant | ABA EC50
N61W | 3.47 µM
A13G | 4.36 µM
P146H | 620 µM
R132S | 0.531 µM
W41F | 167 µM
E125V | 1.58 µM
C25W | 374 µM
F66W | 3.81 µM
K116F | 240 µM
P146S | 94.5 µM
P83A | 17.4 µM
E109C | 11.6 µM
R46H | 42.4 µM

Study 2
Target: UBE2N UBC core domain (UniProt P61088)
Technique: yeast two-hybrid
Sample: yeast
Notes: mostly zero background
Baseline: not given
Direction: higher = stronger interaction
B1: RNF7 RING domain (UniProt Q9UBF6); chain AICRVQVMDACLRCQAENKQEDCVVVWGECNHSFHNCCMSLWVKQNNRCPLCQQDWVVQRIGK
B2: CBLL1 RING domain (UniProt Q75N03); chain GEKDDTPVHFCDKCGLPIKIYGRMIPCKHVFCYDCAILHEKKGDKMCPGCSDPVQRIEQCT
B3: TRIM68 RING domain (UniProt Q6AZZ1); chain LVEAIVEEVACPICMTFLREPMSIDCGHSFCHSCLSGLWEIPGESQNWGYTCPLCRAPVQPRNLRP
B4: TRIM74 RING domain (UniProt Q86UV6); chain SLLELEDWLQCPICLEVFKESLMLQCGHSYCKGCLVSLSYHLDTKVRCPMCWQVVDGSSSLP
B5: MARCHF2 RING domain (UniProt Q9P0N8); chain RLLSTVIRALDTPSDGPFCRICHEGANGECLLSPCGCTGTLGAVHKSCLEKWLSSSNTSYCELCHTEFAVEKRPRPLTEWL
B6: RNF17 RING domain (UniProt Q9BXT8); chain SQPWGAAEIQCTRCGRRVSRSSGHHCELQCGHAFCELCLLMTEECTTIICPDCEVATAVNTRQR
B7: TRIM47 RING domain (UniProt Q96LD4); chain MDGSGPFSCPICLEPLREPVTLPCGHNFCLACLGALWPHRGASGAGGPGGAARCPLCQEPFPDGLQLR
B8: TRIM32 RING domain (UniProt Q13049); chain NLDALREVLECPICMESFTEEQLRPKLLHCGHTICRQCLEKLLASSINGVRCPFCSKITRITSLTQ
Residues (chain): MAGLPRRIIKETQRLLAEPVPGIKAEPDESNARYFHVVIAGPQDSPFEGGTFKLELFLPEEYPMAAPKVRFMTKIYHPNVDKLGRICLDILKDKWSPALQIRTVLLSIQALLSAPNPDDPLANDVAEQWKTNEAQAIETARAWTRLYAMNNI
Molecule | lacZ reporter activity
MEEMEEELKCPVCGSFYREPIILPCSHNLCQACARNILVQTPESESPQSHRAAGSGVSDY (TRIM9 RING domain (UniProt Q9C026)) | 0
SNNDLASLFECPVCFDYVLPPILQCQSGHLVCSNCRPKLTCCPTCRGPLGSIRNLA (SIAH1 RING domain (UniProt Q8IUQ4)) | 0
B1 (RNF7 RING domain) | 0
B2 (CBLL1 RING domain) | 0
B3 (TRIM68 RING domain) | 0
B4 (TRIM74 RING domain) | 0
B5 (MARCHF2 RING domain) | 0
B6 (RNF17 RING domain) | 0
EDVLSKDAGECAICLEELQQGDTIARLPCLCIYHKGCIDEWFEVNRSCPEHPSD (ZNRF2 RING domain (UniProt Q8NHG8)) | 14000
B7 (TRIM47 RING domain) | 0
EIKDYKARLTCPCCNMRKKDAVLTKCFHVFCFECVKTRYDTRQRKCPKCNAAFGANDFHR (RNF20 RING domain (UniProt Q5VTR2)) | 0
B8 (TRIM32 RING domain) | 11200

Study 3
Target: RNA binding protein fox-1 homolog 2, RRM domain, GST-SBP tag (RBFOX2, Homo sapiens, UniProt O43251-10, residues 100-194)
Technique: RNA Bind-n-Seq
Form: RNA
Sample: in vitro
Concentration: 365 nM
Notes: natural RNA segment, single round, ends assumed
Baseline: no-protein control
Direction: higher = stronger binding
Construct (chain): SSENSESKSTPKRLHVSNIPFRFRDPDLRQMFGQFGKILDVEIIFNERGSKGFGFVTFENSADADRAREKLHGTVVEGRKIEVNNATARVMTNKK
Strand | RBNS enrichment (R)
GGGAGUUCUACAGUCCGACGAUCAAGAAUCUAGGGAGUGGCCAAACUAAAUAUAAUUUCUUUAAAAAAGAAAGAAAAAGGAAAAAUCCAAAAUAUCUCAGUAUCAUCUGUCUGAAGCAUUGUGUGUUCUCAUUUGGAAUUCUCGGGUGCCAA | 0.505
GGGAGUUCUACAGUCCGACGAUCAUUAAAUAAAAAAUAUUAAAUAAAACAUGGCAAUAAGUGUCAGACUAUUAGGAAUUGAGAAGGGGGAUCAACUAAAUAAACGAAGAGAGUCUUUCUUAUGCCUUCCUUGCUGGAAUUCUCGGGUGCCAA | 0.373
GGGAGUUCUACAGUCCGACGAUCUCCAGCCUUGCCAGCCUGACUCAGAUCCUCAUCUCUGGGCCUUUCUCCCUCCGAUGUUGGACUGCCUGAUGCUCCCAAUGACAUAUCCAAUGCUCCUGGCAUUUCUGGAGUGGAAUUCUCGGGUGCCAA | 0.539
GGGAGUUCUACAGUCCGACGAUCUAGGAUCUUAAGGCCCUGGCAGAGCUCAGAGACGCGCAGCAUUACCAAUACUACUGUGUGUACCAAGUGUGGAGGGGCUGGUCACAUUGCUUCUGAUUGCAAAUUUCAGAUGGAAUUCUCGGGUGCCAA | 0.509
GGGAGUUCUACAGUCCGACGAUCUUUAGUUACUUAAGUUGAGUAAAUGUCUAAUUGUUUACAAACUAAAUUGACUAAAUAAGGUCAAGGAUAAUGUUUUUCAUUGAUUAACCAUUUAUUAUACAUAUAAUCUAUGGAAUUCUCGGGUGCCAA | 0.422
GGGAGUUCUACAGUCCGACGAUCCUUCCUGGUAGUUGUAAUGACCACUCCCAUAAGGGCUAUAACUGUUCUUCACAGGUGGCCCUGCUCAAAAUACAUCCUCUCUUUUCCCGUUCUAUCCCUACAUUCACAUCUGGAAUUCUCGGGUGCCAA | 0.295
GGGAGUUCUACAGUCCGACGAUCUUGUGUCUGUGUAUAUACUGUGCCUUUUCUCCUUGUCGAGGGGUGGGAGGGGUUGGUUUUUCACUGAACAGGGGAUAUGCCUAUGUCUUCAUCAGUGUUGAAACAUUCACUGGAAUUCUCGGGUGCCAA | 0.336
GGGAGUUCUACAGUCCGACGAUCUCCUAUGCUGGAGUUUUGAUUUUUAACUAAACGCAAAUCUGUAGAUUCUCUCCUCUCCCAUCCCAGAAAACAAAACAAAAUAAUGCUUUUCGAAAUUGUUUCUAGGACUUUGGAAUUCUCGGGUGCCAA | 0.626
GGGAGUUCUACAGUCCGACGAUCUCAUCUGGUUGGUUUUCAGCCUAGAAUUUGAUACGCUUUUUAGAAAUAUGCCCAGAAUAGAAAAGCUAUGUUGGGGCACAUGUCCUGCAAAUAUGGCCCUAGAAACAAGUUGGAAUUCUCGGGUGCCAA | 0.373
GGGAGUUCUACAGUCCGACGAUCCUUCAUGCUUCCCCCUUUCCAUAUUAUAAUCUCAUUUGAUUGCUCUGCAGUUGGGAACGGUGAUCUUCUUGAAUGAUGUUUCAGUGUGCAAAAACUAUAGAGCCUGUCAGUGGAAUUCUCGGGUGCCAA | 0.525
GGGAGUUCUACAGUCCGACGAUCUUUGUACGAGUAAGGGUUUGAUCUACAAAAGAGCUCACAUGGACGCACUGAGAACGCCUGCCAGCUUCCCCAUGCCCUCACUUGGUUUGUGUUUUAGGUUAAGUAGUCAAUGGAAUUCUCGGGUGCCAA | 1.63
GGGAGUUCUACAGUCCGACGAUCAUUGUUAAGGUGGACUUCAUGGCCACUGGAAGGUCUGUUUUGGUGUUACCUGAGUGUGACACAGGCCCUGGGGUGUGCGUGUUUCUCUAACUGUCUACACGUGCACAUAGUGGAAUUCUCGGGUGCCAA | 0.343

Study 4
Target: CCNB2, cyclin fold, Cln2 fusion (human)
Technique: yeast growth competition, sequencing
Sample: yeast
Notes: weak parent motif
Baseline: not given
Direction: higher = stronger binding
Starting sequence: CDKN1A docking peptide (human); SKACRRLFGPVDS; partner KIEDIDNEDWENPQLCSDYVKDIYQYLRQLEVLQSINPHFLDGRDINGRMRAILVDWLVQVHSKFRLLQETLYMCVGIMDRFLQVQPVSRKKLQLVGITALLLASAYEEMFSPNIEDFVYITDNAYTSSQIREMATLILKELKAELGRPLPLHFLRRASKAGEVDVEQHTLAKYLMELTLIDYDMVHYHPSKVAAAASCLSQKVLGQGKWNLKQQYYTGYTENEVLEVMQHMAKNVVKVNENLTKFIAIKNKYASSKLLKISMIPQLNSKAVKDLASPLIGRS
Variant | normalised enrichment score
SCACRRLFGPVDS [K2C] | -0.113
SKACRRLFLPVDS [G9L] | 0.528
SKACMRLFGPVDS [R5M] | -0.119
SKNCRRLFGPVDS [A3N] | -0.293
SKAFRRLFGPVDS [C4F] | 0.0712
SKYCRRLFGPVDS [A3Y] | 0.38
SKACRRLFGPVLS [D12L] | 0.0722
SKGCRRLFGPVDS [A3G] | 0.358
SKACRRLIGPVDS [F8I] | 0.156
SKACRRLFWPVDS [G9W] | 0.585
SKACRRLFNPVDS [G9N] | 0.135
SKACRRPFGPVDS [L7P] | 0.383
SKASRRLFGPVDS [C4S] | 0.141
SKACRRLYGPVDS [F8Y] | 0.0347
SKCCRRLFGPVDS [A3C] | 0.547
SKAPRRLFGPVDS [C4P] | 0.106
SKFCRRLFGPVDS [A3F] | 0.0887

Some of these lines once more (study 3):
Strand | RBNS enrichment (R)
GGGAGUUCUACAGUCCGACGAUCUUUGUACGAGUAAGGGUUUGAUCUACAAAAGAGCUCACAUGGACGCACUGAGAACGCCUGCCAGCUUCCCCAUGCCCUCACUUGGUUUGUGUUUUAGGUUAAGUAGUCAAUGGAAUUCUCGGGUGCCAA | 1.63
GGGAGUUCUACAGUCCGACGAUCAAGAAUCUAGGGAGUGGCCAAACUAAAUAUAAUUUCUUUAAAAAAGAAAGAAAAAGGAAAAAUCCAAAAUAUCUCAGUAUCAUCUGUCUGAAGCAUUGUGUGUUCUCAUUUGGAAUUCUCGGGUGCCAA | 0.505
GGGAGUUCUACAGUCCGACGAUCUCAUCUGGUUGGUUUUCAGCCUAGAAUUUGAUACGCUUUUUAGAAAUAUGCCCAGAAUAGAAAAGCUAUGUUGGGGCACAUGUCCUGCAAAUAUGGCCCUAGAAACAAGUUGGAAUUCUCGGGUGCCAA | 0.373
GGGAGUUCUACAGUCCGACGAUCUCCAGCCUUGCCAGCCUGACUCAGAUCCUCAUCUCUGGGCCUUUCUCCCUCCGAUGUUGGACUGCCUGAUGCUCCCAAUGACAUAUCCAAUGCUCCUGGCAUUUCUGGAGUGGAAUUCUCGGGUGCCAA | 0.539
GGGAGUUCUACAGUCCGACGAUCAUUGUUAAGGUGGACUUCAUGGCCACUGGAAGGUCUGUUUUGGUGUUACCUGAGUGUGACACAGGCCCUGGGGUGUGCGUGUUUCUCUAACUGUCUACACGUGCACAUAGUGGAAUUCUCGGGUGCCAA | 0.343
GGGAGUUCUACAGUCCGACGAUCCUUCCUGGUAGUUGUAAUGACCACUCCCAUAAGGGCUAUAACUGUUCUUCACAGGUGGCCCUGCUCAAAAUACAUCCUCUCUUUUCCCGUUCUAUCCCUACAUUCACAUCUGGAAUUCUCGGGUGCCAA | 0.295
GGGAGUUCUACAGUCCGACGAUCCUUCAUGCUUCCCCCUUUCCAUAUUAUAAUCUCAUUUGAUUGCUCUGCAGUUGGGAACGGUGAUCUUCUUGAAUGAUGUUUCAGUGUGCAAAAACUAUAGAGCCUGUCAGUGGAAUUCUCGGGUGCCAA | 0.525
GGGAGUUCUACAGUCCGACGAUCUAGGAUCUUAAGGCCCUGGCAGAGCUCAGAGACGCGCAGCAUUACCAAUACUACUGUGUGUACCAAGUGUGGAGGGGCUGGUCACAUUGCUUCUGAUUGCAAAUUUCAGAUGGAAUUCUCGGGUGCCAA | 0.509
